Experimental data pooled from the literature.
Several values in a cell are separate wells, animals, samples, runs or records. ± marks the error that the study gave. In brackets after ≈: the same amount, converted by molar mass.
EPHX2: Bifunctional epoxide hydrolase 2 (EPHX2, Homo sapiens, UniProt P34913)
PGR: Progesterone receptor (PGR, Homo sapiens, UniProt P06401)

Compound | tested on | assay | test system | setting | how to read | measurement | value
CCN(CC)CCSC(=S)N1CCN(C(=O)/C=C/c2coc3ccc(F)cc3c2=O)CC1 | tomato spotted wilt virus | virus inactivation, half-leaf method | Nicotiana glutinosa | tested 31.25 to 500 µg/mL | – | EC50 | 104 ± 8.4 µg/mL (≈ 217 µM)
C=CCC1NC(=O)C=CC(=O)NC(C(N)=O)CCNC(=O)C(CCCNC(=O)c2cnccn2)NC(=O)C(Cc2ccco2)NC1=O (stereo not drawn) | MAP2K6 (Homo sapiens, UniProt P52564) | DNA-templated library selection | – | one selection round | – | enrichment factor | 0.81
CC(CCC(=O)SCCNC(=O)CCNC(=O)C(O)C(C)(C)CO)C1CCC2C3C(O)CC4CC(O)CCC4(C)C3CC(O)C12C (stereo not drawn) | Pantetheinase (VNN1, Homo sapiens, UniProt O95497) | hydrolysis, substrate, pantothenic acid by HPLC-HRMS | – | 15 min, 37 °C, with: VNN1 0.01 µM | – | Vmax | 1.53 ± 0.2 min⁻¹
CN(C)CCSC(=S)N1CCN(C(=O)/C=C/c2coc3cc(F)ccc3c2=O)CC1 | tomato spotted wilt virus | virus inactivation, half-leaf method | Nicotiana glutinosa | tested 31.25 to 500 µg/mL | – | EC50 | 119 ± 6.4 µg/mL (≈ 264 µM)
CC12CC3CC(C)(C1)CC(NC(=O)Nc1ccc(C(=O)N4CCC(C(N)=O)CC4)cc1)(C3)C2 | EPHX2 | – | – | – | – | lipophilic ligand efficiency | 6.62
CC1=C(/C=C/C(C)=C/C=C/C(C)=C/C=O)C(C)(C)CCC1 | CNGA1 (Bos taurus, UniProt Q00194) | ion current, inhibitor, outside-out patch clamp | – | 400 nM, not at steady state, with: cGMP 2 mM | – | time constant of inhibition | 6750 s
Cc1cc2c(NC(=O)N[C@@H]3CC(C)(C)Oc4c(OC(F)(F)F)cccc43)cccc2cn1 | TRPA1 (Homo sapiens, UniProt O75762) | cell-based | – | no activity up to value | – | activity | > 100 µM
CCCCCCCC(=O)Nc1ccc(OC)nc1C | Cocaine esterase (CES2, Homo sapiens, UniProt O00748) | enzyme activity, substrate | – | pH 8, 37 °C, substrate 3.13 to 100 µM | – | Km | 18 µM
CC(=O)N[C@@H](Cc1c[nH]c2ccccc12)C(=O)N[C@@H](Cc1c[nH]c2ccccc12)C(=O)N[C@@H](Cc1c[nH]c2ccccc12)C(=O)N[C@@H](Cc1c[nH]c2ccccc12)C(=O)N[C@@H](Cc1c[nH]c2ccccc12)C(=O)N[C@@H](Cc1c[nH]c2ccccc12)C(=O)N[C@@H](Cc1c[nH]c2ccccc12)C(=O)NCCCC[C@@H]1NC(=O)[C@H](CCCNC(=N)N)NC(=O)[C@H](CCCNC(=N)N)NC(=O)[C@H](CCCNC(=N)N)NC(=O)[C@H](CCCNC(=N)N)NC(=O)[C@H](CCCNC(=N)N)NC1=O | KIT (Homo sapiens, UniProt P10721) | enzyme activity, inhibitor | – | 5 µM | – | remaining activity | 88%
C=C1C[C@]2(C(=O)OC)C=C(C(=O)Nc3cccc(C(=O)Nc4ccc(Nc5nccc(-c6cccnc6)n5)c(C)c4)c3)C(=O)[C@H]1C2 | MAPK8 (Homo sapiens, UniProt P45983) | binding, SPR | – | 15, 40, 70 nM, parallel kinetic model | – | k4 | 4e-05 s⁻¹
Cc1ccc2ccc3ccc(C)nc3c2n1.Cc1ccc2ccc3ccc(C)nc3c2n1.O.[Cl-].[Cl-].[Cl-].[Yb+3] | Albumin (ALB, Bos taurus, UniProt P02769) | fluorescence quenching titration | – | concentration not given, 301 K | – | number of binding sites | 1.09
C[N+]1(C)CCCCC1CNC(=O)c1cc(OCC(F)(F)F)ccc1OCC(F)(F)F (stereo not drawn) | SCN5A (Homo sapiens, UniProt Q14524) | sodium current, blocker, whole-cell patch clamp | – | 100 µM, internal application | – | use-dependent block | 37.3 ± 1.7%
Cc1ncsc1-c1ccc([C@@H]2CCCCCCNC(=O)C[C@@H]3N=C(c4ccc(cc4)OCCCCCC(=O)N[C@@H](C(C)(C)C)C(=O)N4C[C@H](O)C[C@H]4C(=O)N2)c2c(sc(C)c2C)-n2c(C)nnc23)cc1 | BRD4/VHL, BD2; with elongins B/C (Homo sapiens, UniProt O60885+P40337) | ternary complex formation, biolayer interferometry | – | BRD4 BD2 with VHL-ElonginC-ElonginB | – | cooperativity factor alpha | 5.2
CCN(CC)c1ccc2c(-c3ccc(S(=O)(=O)NCC(=O)NCC(=O)N[C@@H](CO)C(=O)NCC(=O)NCC(=O)N[C@@H](CO)C(=O)NCC(=O)NCC(=O)N[C@@H](CO)C(=O)N[C@@H](CC(C)C)C(=O)N[C@@H](CC(N)=O)C(=O)N4CCC[C@H]4C(=O)N[C@@H](Cc4c[nH]cn4)C(=O)NCC(=O)N[C@@H](CO)C(=O)N[C@@H](C)C(=O)N[C@@H](CCCNC(=N)N)C(=O)N[C@@H](C)C(=O)N[C@@H](CCC(=O)O)C(=O)N[C@H](C(=O)N[C@@H](Cc4c[nH]cn4)C(=O)N[C@@H](CC(C)C)C(=O)N[C@@H](CO)C(N)=O)C(C)C)cc3S(=O)(=O)[O-])c3ccc(=[N+](CC)CC)cc-3oc2c1 | WDR5 (Homo sapiens, UniProt P61964) | binding, surface plasmon resonance | – | with: SET1 Win peptide | above detection limit | koff | > 0.5 s⁻¹
COC(=O)Nc1ccc2c(c1)c(Cc1ccc(C(=O)NS(=O)(=O)c3ccc(C(F)(F)F)cc3)cc1OC)cn2C | Tumor necrosis factor receptor superfamily member 1A (Homo sapiens, UniProt P19438) | TNF-induced IκB degradation, inhibitor | HEK293 cells | 0.01 to 500 nM | – | IκB degradation | inhibited
CC(=O)N[C@@H](CCCCN)C(=O)N[C@@H](CCC(=O)O)C(=O)N[C@@H](CCCCN)C(=O)N[C@@H](CC(C)C)C(=O)N[C@@H](CC(N)=O)C(=O)N[C@@H](CO)C(=O)N[C@@H](CCCCN)C(=O)N[C@@H](CC(=O)O)C(=O)NCC(=O)N[C@@H](CCCCN)C(=O)N[C@@H](CCCCN)C(=O)N[C@@H](CCCCN)C(=O)N[C@@H](CCCCN)C(=O)N[C@@H](CCCCN)C(=O)N[C@@H](CCCCN)C(=O)N[C@@H](CO)C(=O)N[C@@H](CCCCN)C(=O)N[C@H](C(=O)N[C@@H](CCCCN)C(N)=O)[C@@H](C)O | GTPase KRas (KRAS, Homo sapiens, UniProt P01116) | SOS1-catalysed nucleotide exchange, inhibitor | – | 570 nM, with: 600 nM SOS1 | – | nucleotide exchange half-time | 780 ± 25 s
CCc1c(Cl)cccc1N1CCN(C[C@@H](F)CCNC(=O)c2cc3ccccc3[nH]2)CC1 | DRD3 (Homo sapiens, UniProt P35462) | mitogenesis, agonist | CHO | – | relative to: dopamine and quinpirole | efficacy | ~55% and 55%
CCCCCSc1nc2c([nH]1)c(=O)n(C)c(=O)n2C | Nr3c1 (Rattus norvegicus, UniProt P06536) | reporter gene, antagonist, MMTV-luciferase | T47D/A1-2 | 10 µM, 24 h, with: 5 nM dexamethasone | relative to: maximal activity | remaining activity | 122%
S=C(Nc1ccc(Cl)cc1)Nc1cccc2[nH]ccc12 | Alpha-synuclein (SNCA, Homo sapiens, UniProt P37840) | fibril formation, ThT fluorescence kinetics | – | 100 µM, α-syn 2 µM, plateau phase | relative to: DMSO vehicle | maximum ThT fluorescence | 8 ± 1%
CCCCSc1nc2c([nH]1)c(=S)n(C)c(=S)n2C | PGR | reporter gene, antagonist, MMTV-luciferase | T47D/A1-2 | 10 µM, 24 h, with: 5 nM progesterone | relative to: maximal activity | remaining activity | 51%
CC(=O)OC1(C(C)=O)CCC2C3C=C(CO)C4=CC(=O)CCC4(C)C3CCC21C (stereo not drawn) | PGR | agonist, item: FKBP5 | T47D | 100 nM, 8 h | relative to: ethanol vehicle | mRNA fold change | 4.7 ± 0.8 fold change
C=CCn1c(=O)c2ccccc2n2c(SCC(=O)Nc3ccc(NC(C)=O)cc3)nnc12 | CHRM2 (Homo sapiens, UniProt P08172) | ERK1/2 phosphorylation, antagonist | human cells | 1 µM, with: [3H]NMS, iperoxo at EC80 | – | pA2 | 10.5 ± 0.15
CC(C)[C@H](NC(=O)[C@@H]1CCCN1C(=O)[C@H](C)NC(=O)[C@H](CO)NC(=O)[C@H](C)NC(=O)[C@H](CC(N)=O)NC(=O)[C@H](CCC(=O)O)NC(=O)[C@@H](NC(=O)[C@H](CC(=O)O)NC(=O)[C@H](CCCCN)NC(=O)[C@H](C)NC(=O)[C@H](CCC(N)=O)NC(=O)[C@H](Cc1ccccc1)NC(=O)[C@H](C)NC(=O)[C@H](Cc1c[nH]c2ccccc12)NC(=O)[C@H](C)NC(=O)[C@@H](NC(=O)CN)C(C)C)C(C)C)C(=O)O | PCY1 Saponaria vaccaria | substrate, kinetic ITC | – | 30 °C | – | Km | 0.25 ± 0.01 µM
CC1=CC(C)=[N+]2C1=C(CCCCc1cn(C[C@H]3O[C@@H](O/C(=N\c4ccccc4)C(F)(F)F)[C@H](F)[C@@H](O)[C@@H]3O)nn1)c1c(C)cc(C)n1[B-]2(F)F | GBA1 (Homo sapiens, UniProt P04062, R534H) | thermal stability, tryptophan fluorescence | – | saturating, pH 5.2 | – | Tm increase | 12.9 °C
C[C@H](NC(=O)CNC(=O)[C@@H]1CSSC[C@H](NC(=O)[C@H](C)NC(=O)CN)C(=O)N[C@@H](CCCNC(=N)N)C(=O)N[C@@H](CCCNC(=N)N)C(=O)N[C@@H](CCC(=O)O)C(=O)N[C@@H]([C@@H](C)O)C(=O)N[C@@H](C)C(=O)N[C@@H](Cc2c[nH]c3ccccc23)C(=O)N[C@@H](C)C(=O)N1)C(=O)O | Integrin alpha-IIb/beta-3 (Homo sapiens, UniProt P05106+P08514) | binding to coated wells | – | concentration not given | – | binding | no binding
CCCCCCCCCSc1nc2c([nH]1)c(=O)n(C)c(=S)n2C | PGR | reporter gene, antagonist, MMTV-luciferase | T47D/A1-2 | 10 µM, 24 h, with: 5 nM progesterone | relative to: maximal activity | remaining activity | 79%
CN1CCN(CC(=O)N2N=C3/C(=C/c4ccccc4)CCCC3C2c2ccccc2)CC1 (mixture of isomers) | ALOX15 (Homo sapiens, UniProt P16050) | activator | – | 10 µM, with: arachidonic acid 50 µM | relative to: no activator | lag phase change | 93 s
CC[C@H](C)[C@H](NC(=O)CNC(C)=O)C(=O)N[C@@H](CCCNC(=N)N)C(=O)N[C@@H](CCC(=O)O)C(=O)N[C@@H](C)C(=O)N[C@H](C(=O)N[C@@H](CC(C)C)C(=O)N[C@@H](CCCNC(=N)N)C(=O)N[C@@H](C)C(=O)N[C@@H](Cc1c[nH]c2ccccc12)C(=O)N[C@@H](CCC(=O)O)C(=O)N[C@@H](CCCNC(=N)N)C(=O)N[C@@H](CCCNC(=N)N)C(=O)N[C@@H](Cc1ccc(O)cc1)C(=O)NCC(N)=O)[C@@H](C)O | Antirepressor protein CarS (carS, Myxococcus xanthus, UniProt Q06911) | ITC | – | concentration not given, pH 7.5, 25 °C | – | binding stoichiometry | 0.97 ± 0.02
CC(=O)N1CCN(C(=O)c2ccc(NC(=O)NC34CC5CC(C)(CC(C)(C5)C3)C4)cc2)CC1 | EPHX2 | – | – | – | – | lipophilic ligand efficiency | 6.84
CNc1ccccc1C(=O)O[C@H]1C[C@H](n2cnc3c(N)ncnc32)O[C@@H]1COP(=O)(O)OP(=O)(O)O | Unconventional myosin-Va (Gallus gallus, UniProt Q02440, D297C/G292C/I296C/S293C/V295G) | stopped-flow FRET, linear fit intercept | – | 4 °C, with: MgCl2 2 mM | – | dissociation rate constant | 0.79 ± 0.36 s⁻¹
